{"data": "Experimental data pooled from the literature", "note": "Each line is one published result; not all experiments were run side by side. Numbers after ± are the reported error."}
{"SMILES": "CN(C(=O)C(C)(C)c1cc(C(F)(F)F)cc(C(F)(F)F)c1)c1cnc(N2C[C@H]3COCCN3C[C@H]2CO)cc1-c1ccc(F)cc1[14CH3]", "assay": "LC-MS/MS", "system": "human, plasma", "conditions": "oral, 120 mg", "Cmax": "521 ng/mL"}
{"SMILES": "Cn1c(=O)oc2ccc(-c3ccc(C[C@@H](C#N)NC(=O)[C@@H]4CNCCCO4)cc3)cc21", "assay": "HPLC-MS/MS", "system": "healthy male humans, plasma", "conditions": "oral, 25 mg", "Cmax": "598 nM"}
{"SMILES": "COc1nnc2ccc(N3CCC(c4ccc(OCCN5CCN(C)C(=O)[C@H]5C)cc4)CC3)nn12", "system": "human, plasma", "conditions": "oral, 2 mg once daily, multiple dose, monotherapy", "Cmax": "22.3 nM"}
{"SMILES": "Cc1cc(OCCOCCC(F)(F)P(=O)(O)O)ccc1CCc1cnc2c(N)nc3cc(CCC(=O)O)ccc3c2c1", "system": "human, serum", "conditions": "intratumoral, 100 µg every 2 weeks, cycle 1 day 1", "Cmax": "1.78 ng/mL"}
{"SMILES": "Cc1ccc(C(=O)N(CCCN)C(c2nc3snc(C)c3c(=O)n2Cc2ccccc2)C(C)C)cc1 (centres unmarked)", "system": "human", "conditions": "intravenous, 16 mg/day, course day 3 following induction, geometric mean", "Cmax": "87.1 ng/mL"}
{"SMILES": "CO[C@H]1/C=C/O[C@@]2(C)Oc3c(C)c(O)c4c(O)c(c(/C=N/N5CCN(C)CC5)c(O)c4c3C2=O)NC(=O)/C(C)=C\\C=C\\[C@H](C)[C@H](O)[C@@H](C)[C@@H](O)[C@@H](C)[C@H](OC(C)=O)[C@@H]1C", "system": "healthy human subjects, plasma", "conditions": "oral, dose not given, compound alone once daily", "Cmax": "7450 ng/mL"}
{"SMILES": "C#C[C@]1(CO)O[C@@H](n2cnc3c(N)nc(F)nc32)C[C@@H]1O", "system": "human, plasma", "conditions": "oral, 400 mg, single dose, geometric mean", "Cmax": "9760 nM"}
{"SMILES": "O=C(c1cc(Cc2n[nH]c(=O)c3ccccc23)ccc1F)N1CCN(C(=O)C2CC2)CC1", "assay": "HPLC-MS/MS", "system": "human patients, plasma", "conditions": "oral, 25 mg twice daily, dose level -1, cycle 1 day 1, with: carboplatin target AUC 3", "Cmax": "1270 ng/mL"}
{"SMILES": "COc1ccc2nc([S@@+]([O-])Cc3ncc(C)c(OC)c3C)[nH]c2c1", "system": "human, dried blood spots", "conditions": "oral, 10 mg omeprazole, with: fluvoxamine", "Cmax": "208 ng/mL"}
{"SMILES": "Cc1cc(Nc2cc3ncccc3c(N[C@@H]3C[C@H]4CC[C@@H](C3)N4CCC#N)n2)n[nH]1", "system": "human, plasma", "conditions": "1000 mg single dose, mean", "Cmax": "37.2 ng/mL"}
{"SMILES": "N#C[C@H](C[C@@H]1CCCNC1=O)NC(=O)[C@H](CC1CC1)NC(=O)c1cc2cccc(Cl)c2[nH]1", "system": "human, plasma", "conditions": "700 mg twice daily, day 1", "Cmax": "3650 ng/mL"}
{"SMILES": "Cc1cc(C)c(CNC(=O)c2cc(Cl)c3c(c2C)O[C@@](C)([C@H]2CC[C@H](N(C)C)CC2)O3)c(=O)[nH]1", "system": "human, NHL patients, plasma", "conditions": "oral, 200 mg/day, cycle 1 day 1, once daily", "Cmax": "1930 ng/mL"}
{"SMILES": "C[C@H](CCC(=O)O)[C@H]1CC[C@H]2[C@@H]3[C@H](O)C[C@@H]4C[C@H](O)CC[C@]4(C)[C@H]3C[C@H](O)[C@]12C", "system": "human, plasma", "conditions": "concentration not given, endogenous baseline diurnal", "Cmax": "113 ± 41 nM"}
{"SMILES": "CC(C)(Sc1ccncc1-c1ccc(C#N)c2ccccc12)C(=O)O", "system": "human, plasma", "conditions": "oral, 2.5 mg once daily, with: febuxostat 20 mg", "Cmax": "6.64 ng/mL"}
{"SMILES": "CC(=O)O[C@@]12CO[C@@H]1C[C@H](O)[C@@]1(C)C(=O)[C@H](O)C3=C(C)[C@@H](OC(=O)[C@H](O)[C@@H](NC(=O)OC(C)(C)C)c4ccccc4)C[C@@](O)([C@@H](OC(=O)c4ccccc4)[C@H]21)C3(C)C", "assay": "LC-MS", "system": "human, plasma", "conditions": "intravenous, 70 mg/m^2, infusion over 1 h, cycle 1, with another drug", "Cmax": "2500 nM"}
{"SMILES": "CC(C)NC(=O)COc1cccc(-c2nc(Nc3ccc4[nH]ncc4c3)c3ccccc3n2)c1", "system": "human male, plasma", "conditions": "oral, 200 mg, day 6, alone, adjusted geometric mean", "Cmax": "2050 ng/mL"}
{"SMILES": "C=CC(=O)N(C)CCOc1c(N)ncnc1-c1cc(F)cc(NC(=O)c2ccc(C3CC3)cc2F)c1C", "system": "human, whole blood", "conditions": "oral, 400 mg, single ascending dose, fasted", "Cmax": "432 ng/mL"}
{"SMILES": "CC(=O)N1CCC(Nc2cc(C(=O)NC[C@H](O)CN3CCc4ccccc4C3)ncn2)CC1", "system": "human, plasma", "conditions": "oral, 300 mg, week 3 day 1, geometric mean", "Cmax": "890 ng/mL"}
{"SMILES": "COC(=O)N[C@H](C(=O)N1CCC[C@H]1c1ncc(-c2cc(F)c3c(c2)O[C@@H](c2cnc(C4CC4)s2)n2c-3cc3cc(-c4cnc([C@@H]5CCCN5C(=O)[C@@H](NC(=O)OC)C(C)C)[nH]4)ccc32)[nH]1)C(C)C", "system": "healthy adult humans, plasma", "conditions": "oral, 180 mg once daily, day 6, fasted, steady state, alone", "Cmax": "375 ng/mL"}
{"SMILES": "COc1cc([C@@H]2Oc3ccc([C@H]4Oc5cc(O)cc(O)c5C(=O)[C@@H]4O)cc3O[C@H]2CO)ccc1O", "system": "OATP1B1/1B3 humanized mice, plasma", "conditions": "oral gavage, 500 mg/kg silymarin", "Cmax": "440 nM"}
{"note": "Some of these lines once more:"}
{"SMILES": "CC(=O)N1CCC(Nc2cc(C(=O)NC[C@H](O)CN3CCc4ccccc4C3)ncn2)CC1", "system": "human, plasma", "conditions": "oral, 300 mg, week 3 day 1, geometric mean", "Cmax": "890 ng/mL"}
{"SMILES": "COc1ccc2nc([S@@+]([O-])Cc3ncc(C)c(OC)c3C)[nH]c2c1", "system": "human, dried blood spots", "conditions": "oral, 10 mg omeprazole, with: fluvoxamine", "Cmax": "208 ng/mL"}
{"SMILES": "Cc1cc(OCCOCCC(F)(F)P(=O)(O)O)ccc1CCc1cnc2c(N)nc3cc(CCC(=O)O)ccc3c2c1", "system": "human, serum", "conditions": "intratumoral, 100 µg every 2 weeks, cycle 1 day 1", "Cmax": "1.78 ng/mL"}
